Literature values that unrelated publications cite.
± gives the spread as reported. ≈ marks a conversion by molar mass, not a printed value.

The chains behind the UniProt entries cited, without tags or fusion partners. Residues count along the entry.
UniProt A0ACI6R699, 1-443: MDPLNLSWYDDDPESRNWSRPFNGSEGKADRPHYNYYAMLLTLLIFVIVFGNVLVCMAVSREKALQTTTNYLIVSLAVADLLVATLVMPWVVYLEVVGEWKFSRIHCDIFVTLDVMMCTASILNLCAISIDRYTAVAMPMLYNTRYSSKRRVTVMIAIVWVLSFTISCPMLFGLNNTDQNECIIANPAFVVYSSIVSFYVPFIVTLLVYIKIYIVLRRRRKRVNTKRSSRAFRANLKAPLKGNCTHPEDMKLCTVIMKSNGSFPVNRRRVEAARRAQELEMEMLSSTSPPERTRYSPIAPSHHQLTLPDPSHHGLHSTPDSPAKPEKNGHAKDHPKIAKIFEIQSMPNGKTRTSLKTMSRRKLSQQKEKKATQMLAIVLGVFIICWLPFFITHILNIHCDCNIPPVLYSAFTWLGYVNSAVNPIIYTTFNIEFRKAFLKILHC

For `O=C(/C=C/c1ccccc1)N[C@H](COC(=O)c1ccccc1)C(=O)NC1CCCCC1`, the IC50 was 30000 nM (Replicase polyprotein 1a, 3C-like proteinase (Severe acute respiratory syndrome-related coronavirus, UniProt P0C6U8, R3428I); enzyme activity, inhibitor).
`CC[C@H](C)[C@H](NC(=O)[C@H](C)NC(=O)[C@H](CC(C)C)NC(=O)[C@H](CCC(N)=O)NC(=O)[C@H](CCCNC(=N)N)NC(=O)CNC(=O)[C@@H](NC(=O)[C@H](CCC(N)=O)NC(=O)CNC(=O)[C@H](CCSC)NC(=O)[C@@H](NC(=O)[C@H](CO)NC(=O)[C@H](CO)NC(=O)[C@@H]1CCCN1)[C@@H](C)O)C(C)C)C(=O)N[C@H](C(=O)NCC(=O)N[C@@H](CC(=O)O)C(=O)N[C@@H](CC(=O)O)C(=O)N[C@H](C(=O)N[C@@H](CC(N)=O)C(=O)N[C@@H](CCCNC(=N)N)C(=O)N[C@@H](CCCNC(=N)N)C(=O)N[C@@H](Cc1ccc(O)cc1)C(=O)N[C@@H](CC(=O)O)C(=O)N[C@@H](CO)C(=O)N[C@@H](CCC(=O)O)C(=O)O)[C@@H](C)CC)[C@@H](C)CC` gave a Kd of 2640 nM (variola virus F1L; binding; together with: BH3 peptides).
For `CNCc1ccc(C)c(C(=O)N[C@H](C)c2cccc3ccccc23)c1`, the EC50 was 2000 nM (SARS coronavirus; antiviral activity).
For `O=C(O)CCC(=O)Nc1ccc(CCN2CN(c3ccccc3)C3(CCN(CCCC(=O)c4ccc(F)cc4)CC3)C2=O)cc1`, the Kd was 0.7 ± 0.06 nM (Dopamine D2 receptor (Ovis aries, UniProt A0ACI6R699); binding; sheep brain striatum membranes; together with: [3H]YM-09151-2).
For `CCCC1c2ccccc2C=NN1C(=O)/C=C/c1cc(Cc2cnc(N)nc2N)cc(OC)c1OC` (racemic), the MIC was 1 to 4 µg/mL (≈ 2.06 to 8.22 µM) (Bacillus anthracis; Sterne).
For `Cc1cc(C(=O)N[C@@H](Cc2cccc3ccccc23)C(=O)N[C@@H](CC(C)C)C(=O)N[C@H](C=O)C[C@@H]2CCCNC2=O)no1`, the CC50 was over 100000 nM (Calu-3; cytotoxicity).
With `COc1cc(Cc2cnc(N)nc2N)cc(/C=C/C(=O)N2N=Cc3ccccc3C2c2ccccc2)c1OC` (racemic) the MIC was 0.4 to 1.5 µg/mL (≈ 0.768 to 2.88 µM) (Bacillus anthracis).
`c1ccc2c[n+](CCCCCCCC[n+]3ccc4ccccc4c3)ccc2c1` has a protective ratio of 0.87 (mouse; relative to: LD50 pretreated over non-pretreated).
The IC50 of `CCCCC/C=C\C/C=C\C/C=C\C/C=C\CCCCP(=O)(F)OC` (stereo not shown) is reported as 2.5 nM (FAAH).
For `CC(C)(C)c1cc[n+](CCCCCCCC[n+]2ccc(C(C)(C)C)cc2)cc1`, the protective ratio was 0.98 (mouse; relative to: LD50 pretreated over non-pretreated).
`CC(C)C[C@@H]1NC(=O)[C@H](C(C)C)NC(=O)[C@H](C)NC(=O)[C@@H]2CSSC[C@H](NC(=O)CN)C(=O)N[C@@H](CSSC[C@@H](C(N)=O)NC(=O)[C@H](Cc3ccc(O)cc3)NC1=O)C(=O)N[C@@H](CO)C(=O)N[C@@H]([C@@H](C)O)C(=O)N1CCC[C@H]1C(=O)N1CCC[C@H]1C(=O)N2` has an IC50 of 0.26 nM (α6/α3β2β3 nicotinic acetylcholine receptor; antagonist).
`CCC(CC)C1c2ccccc2C=NN1C(=O)/C=C/c1cc(Cc2cnc(N)nc2N)cc(OC)c1OC` (racemic) has an MIC of 4 to 8 µg/mL (≈ 7.77 to 15.5 µM) (Bacillus anthracis).
`N=C(N)c1ccc(Oc2ccc(-c3cc4ccc(C(=N)N)cc4[nH]3)cc2)cc1`: cytotoxicity “not toxic” (neurons; 40 µM).
